Results of several laboratories.
Every numbered part comes from another study and shows a few of its results, in no order. Changes are numbered by the printed parent chain.

Set 1 — method: protein-binding microarray; form: double-stranded DNA, one strand shown; matrix: in vitro; concentration: not given; reading: higher = stronger binding; measurement: E-score
Target: Max-binding protein MNT, bHLH-zipper, MAX partner unstated (MNT, Homo sapiens, UniProt Q99583, residues 220-300)
Setting: k-mer, scored over probes, only values ≥0.25
Residues (chain): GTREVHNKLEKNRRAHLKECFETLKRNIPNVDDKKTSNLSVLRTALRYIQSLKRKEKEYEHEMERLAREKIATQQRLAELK
GACCATGC: 0.421
GTGACTGA: 0.256
AGCACGCG: 0.458
CGGTGCGC: 0.281
CTGAGCAC: 0.257
ACTCGTGG: 0.41
ACCACACG: 0.362
CGCGCGCA: 0.283

Set 2 — observed: binding; method: phage display NGS; form: peptide; setting: panning round 2; relative to: input library; measurement: minimum log2 enrichment ratio
Target: UDP-N-acetylglucosamine--peptide N-acetylglucosaminyltransferase 110 kDa subunit (OGT, Homo sapiens, UniProt O15294)
Chain of UniProt O15294 (whole entry, looked up): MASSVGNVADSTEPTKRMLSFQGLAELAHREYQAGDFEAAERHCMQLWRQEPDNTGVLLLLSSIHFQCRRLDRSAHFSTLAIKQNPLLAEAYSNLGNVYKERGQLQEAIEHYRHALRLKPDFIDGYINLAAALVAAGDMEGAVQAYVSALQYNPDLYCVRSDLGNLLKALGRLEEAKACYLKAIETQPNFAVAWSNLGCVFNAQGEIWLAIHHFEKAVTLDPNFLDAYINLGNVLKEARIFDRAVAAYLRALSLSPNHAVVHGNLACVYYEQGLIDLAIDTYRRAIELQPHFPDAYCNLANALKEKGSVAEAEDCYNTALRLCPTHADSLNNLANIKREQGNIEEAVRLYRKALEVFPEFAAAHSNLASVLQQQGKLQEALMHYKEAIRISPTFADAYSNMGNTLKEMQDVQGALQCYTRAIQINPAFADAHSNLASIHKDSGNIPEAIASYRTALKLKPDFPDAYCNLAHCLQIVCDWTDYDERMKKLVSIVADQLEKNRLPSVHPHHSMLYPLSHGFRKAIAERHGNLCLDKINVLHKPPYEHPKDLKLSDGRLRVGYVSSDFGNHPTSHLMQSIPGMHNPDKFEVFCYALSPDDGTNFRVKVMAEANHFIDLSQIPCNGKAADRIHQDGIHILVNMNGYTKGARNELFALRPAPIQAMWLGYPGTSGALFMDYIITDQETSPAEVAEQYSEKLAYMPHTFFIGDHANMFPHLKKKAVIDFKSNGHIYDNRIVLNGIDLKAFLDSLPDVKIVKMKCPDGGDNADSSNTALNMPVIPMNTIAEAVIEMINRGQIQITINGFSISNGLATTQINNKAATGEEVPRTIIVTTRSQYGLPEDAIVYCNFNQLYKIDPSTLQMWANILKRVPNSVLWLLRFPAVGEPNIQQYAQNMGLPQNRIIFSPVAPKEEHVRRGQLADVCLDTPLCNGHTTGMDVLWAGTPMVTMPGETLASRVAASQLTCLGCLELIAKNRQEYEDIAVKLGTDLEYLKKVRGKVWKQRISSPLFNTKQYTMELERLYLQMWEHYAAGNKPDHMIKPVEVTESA
HSFMSYHLHTYHSMP: 2.82
FPRWHQLPWPHHVYS: 3.39
QPTTSFPPKYLITYT: 4.81
FLSSFPPKYPIEYET: 2.93
IPAPHQQGTHHGFIH: 2.63
TQFHNHHARDWSKQT: 2.57

Set 3 — target: CCNF, cyclin fold, Cln2 fusion (human); method: yeast growth competition, sequencing; matrix: yeast; setting: strong parent motif; relative to: not given; reading: higher = stronger binding; measurement: normalised enrichment score
Starting sequence: viral docking peptide; KKAKRRLFTISDS; partner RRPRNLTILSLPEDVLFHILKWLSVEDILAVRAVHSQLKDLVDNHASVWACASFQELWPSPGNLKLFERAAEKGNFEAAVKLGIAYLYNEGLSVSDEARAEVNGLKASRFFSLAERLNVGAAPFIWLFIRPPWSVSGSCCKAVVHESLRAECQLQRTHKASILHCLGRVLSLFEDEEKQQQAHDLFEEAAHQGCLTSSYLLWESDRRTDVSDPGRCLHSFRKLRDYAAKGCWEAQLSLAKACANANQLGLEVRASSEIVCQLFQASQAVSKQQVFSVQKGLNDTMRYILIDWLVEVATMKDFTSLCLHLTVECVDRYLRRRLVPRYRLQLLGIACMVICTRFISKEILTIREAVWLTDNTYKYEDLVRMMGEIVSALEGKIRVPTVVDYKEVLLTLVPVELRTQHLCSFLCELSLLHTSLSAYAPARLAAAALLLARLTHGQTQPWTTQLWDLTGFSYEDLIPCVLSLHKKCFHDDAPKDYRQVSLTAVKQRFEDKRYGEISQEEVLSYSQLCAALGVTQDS
KKAKRRLFAISDS [T9A]: 4.85
KKAKRRLFTISDA [S13A]: 4.41
KKAKRRLFTISAS [D12A]: 1.8
KKAKRRLATISDS [F8A]: 1.21
KKAKRRAFTISDS [L7A]: 1.51
KKAKKRLFTISDS [R5K]: 1.16
AKAKRRLFTISDS [K1A]: 5.49

Set 4 — method: EMSA with sequencing; form: double-stranded DNA, one strand shown; matrix: in vitro; concentration: 10 and 20 nM; relative to: negative control set to 0; reading: higher = stronger binding; measurement: normalised bound fraction
Target: Hepatocyte nuclear factor 3-alpha (Foxa1, Mus musculus, UniProt P35582, residues 1-468, full length assumed)
Chain of UniProt P35582 (whole entry, looked up): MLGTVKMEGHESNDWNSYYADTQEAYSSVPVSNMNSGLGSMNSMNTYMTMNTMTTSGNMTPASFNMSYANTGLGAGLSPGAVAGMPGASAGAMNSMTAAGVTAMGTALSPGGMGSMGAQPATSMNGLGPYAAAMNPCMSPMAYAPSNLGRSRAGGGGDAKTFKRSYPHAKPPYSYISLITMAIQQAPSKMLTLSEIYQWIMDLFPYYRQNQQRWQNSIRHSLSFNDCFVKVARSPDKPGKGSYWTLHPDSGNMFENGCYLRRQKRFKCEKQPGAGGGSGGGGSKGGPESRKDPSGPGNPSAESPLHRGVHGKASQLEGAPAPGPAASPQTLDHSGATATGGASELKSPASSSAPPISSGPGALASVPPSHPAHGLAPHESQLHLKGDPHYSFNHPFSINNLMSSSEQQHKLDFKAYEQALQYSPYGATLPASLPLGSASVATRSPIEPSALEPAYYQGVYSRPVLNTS
Setting: whole designed probe, mean of two concentrations, ends assumed
All sequences stand within: GTGAGCGGTGCCCATTGATGGGGAAC … TTTCACTGGGATCGTGGGGAC
CCACAGCTTCAATCATTTTCAGAGCCTGAGTTAGTCTACAAATGGGTTGAGAACACGTTTTTTTTTCACTCAGGCGAAAAGTCATTTCCAAAGTAATCTAAGACTTTAAACTGGGAATTAAGGGCAAGATCAGGGATGAGGAAGTTAATACCATATTGAAAAGTTCTAAGGAAGAAGGCCATGTAACGAGATA: -0.0862 ratio
CTCATTCCTTGCTTCCGCCAATAATCTGACTAGTAAAGAAGTCACTGCATGCCACAAATTGTCAGTGCTGACTTCCTCAACAAGGAAGTATAAGTAAATAAATAGAGTGACTCAGTTAATATATATGCAAATTCCATCTTGAGAATACCAACTCCTGATGCCAACTGATTGTCAGTCATGGCTACAACAGGAG: 0.418 ratio
ATCTTCCCCCTCTTCCTTGCCCCACCAGCTCACCTTCCCGGGTTATTTGCACAAAGGAAAATAAATAAAGCCGGCATTCGTTAACGCAGTTCACGCGCATACTGCTGTTTGCTCTGCATGAATCATGGTCCTTACGCGAGGCGTGGCTCCGGGAGAGCAAAGCACCGTGTCAGGCGCATGATCCGGGGTGGCC: 0.379 ratio
GACAGTACATGTTTTAGGATTTTTGGACCACACAGTCTCTGTCACAATGACTCAGCTTTGCCATTGTAGCGTGCAAACAGCCACAAACCATATGCAAACAAAGAGGGTGTGGTTGTATGCCAATAAAACTTTATTTACAAAAGCAGGAGGACAGTGGAGTTGGCTTGCAGACAGTCATTTGCAGAGCCCTGAT: 0.454 ratio
ATCTTCCCCCTCTTCCTTGCCCCACCAGCTCACCTTCCCGGGTTATTTGCAGATAGGAAAATAAATAAAGCCGGCATTCGTTAACCCTCTTCTGGCGCAAACTGCTGTTTGCTCTGGATGAATCATGGTCCTTTGGCGAGGCGTGGCTCCGGGAGAGCAAAGCACCGTGTCAGGGCCATGATCCGGGGTGGCC: 0.344 ratio
GAACCTCTCCTTTTTCTAAAGACTTTTATAGGCATTTTTTTTTCTTCTTCTCAGCATGTGAACCAATGTGTAACTCAAATAGATGTTACTTTGCTGTTTACTTAGATTGTTTTAAAAGGCTAGCTGTGTGGAGGAATGAGGAAGGAAGGGAGGCGGGAGTGGCTGGAGTTTTTTTTTTTCTCTGTTGACCTAA: 0.348 ratio
CAAGGCTGCTCACCCACTTCTTTAACCATTCTTCAAAAAAGTGAGCTGTTGTTATTGAACTTTTTATTATTACTTAATTACAAGAAAAAACAAAGTAATCTACCAAAAAAAATATAGTGTTGAGAAAATGCCAAGGCTGTTCACCCACTTCTTTAACCATTCTTCAAATTTACCATATATATATTTTTTTGAC: 1.6e-05 ratio
ATCTTCCCCCTCTTCCTTGCCCCACCAGCTCACCTACGGGGGTTATTTGCACAAAGGAAAATAAATAAAGCCGGCATTCGTTAACGCAGTTCTGGCGCAAACTGCTGTTTGCTCTGCATCTAACATGGTCCTTACGCGACGCCAGGCTCCGGGAGAGCAAAGCACCGTGTCAGGCGCATGATCCGGGGTGGCC: 0.393 ratio

Some of these lines once more (set 4):
GACAGTACATGTTTTAGGATTTTTGGACCACACAGTCTCTGTCACAATGACTCAGCTTTGCCATTGTAGCGTGCAAACAGCCACAAACCATATGCAAACAAAGAGGGTGTGGTTGTATGCCAATAAAACTTTATTTACAAAAGCAGGAGGACAGTGGAGTTGGCTTGCAGACAGTCATTTGCAGAGCCCTGAT: 0.454 ratio
CAAGGCTGCTCACCCACTTCTTTAACCATTCTTCAAAAAAGTGAGCTGTTGTTATTGAACTTTTTATTATTACTTAATTACAAGAAAAAACAAAGTAATCTACCAAAAAAAATATAGTGTTGAGAAAATGCCAAGGCTGTTCACCCACTTCTTTAACCATTCTTCAAATTTACCATATATATATTTTTTTGAC: 1.6e-05 ratio
CCACAGCTTCAATCATTTTCAGAGCCTGAGTTAGTCTACAAATGGGTTGAGAACACGTTTTTTTTTCACTCAGGCGAAAAGTCATTTCCAAAGTAATCTAAGACTTTAAACTGGGAATTAAGGGCAAGATCAGGGATGAGGAAGTTAATACCATATTGAAAAGTTCTAAGGAAGAAGGCCATGTAACGAGATA: -0.0862 ratio
ATCTTCCCCCTCTTCCTTGCCCCACCAGCTCACCTACGGGGGTTATTTGCACAAAGGAAAATAAATAAAGCCGGCATTCGTTAACGCAGTTCTGGCGCAAACTGCTGTTTGCTCTGCATCTAACATGGTCCTTACGCGACGCCAGGCTCCGGGAGAGCAAAGCACCGTGTCAGGCGCATGATCCGGGGTGGCC: 0.393 ratio
